# Assay results collected from several papers.
# Parts stem from different laboratories: compare values within a part only.

# Set 1
# Target: Serine/threonine-protein kinase PLK1 (PLK1, Homo sapiens, UniProt P53350)
# UniProt P53350, sequence (whole entry, looked up): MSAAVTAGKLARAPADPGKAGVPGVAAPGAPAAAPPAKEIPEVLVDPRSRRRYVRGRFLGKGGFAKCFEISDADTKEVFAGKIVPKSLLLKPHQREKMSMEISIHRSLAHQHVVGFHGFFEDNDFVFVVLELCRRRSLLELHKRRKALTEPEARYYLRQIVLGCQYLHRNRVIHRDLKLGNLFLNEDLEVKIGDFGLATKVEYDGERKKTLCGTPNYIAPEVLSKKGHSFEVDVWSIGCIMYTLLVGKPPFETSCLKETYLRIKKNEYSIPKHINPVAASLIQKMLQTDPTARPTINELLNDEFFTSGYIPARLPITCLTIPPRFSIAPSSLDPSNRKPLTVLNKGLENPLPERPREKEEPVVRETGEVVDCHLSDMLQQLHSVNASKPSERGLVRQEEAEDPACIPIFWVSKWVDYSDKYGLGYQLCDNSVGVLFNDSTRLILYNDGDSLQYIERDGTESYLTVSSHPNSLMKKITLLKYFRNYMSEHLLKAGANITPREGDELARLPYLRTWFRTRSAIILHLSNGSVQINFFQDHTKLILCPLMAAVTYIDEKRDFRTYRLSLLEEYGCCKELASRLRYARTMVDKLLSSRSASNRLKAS
# Read-out: enzyme activity
# Action: inhibitor
# Tested at: 0.5 µM
# Relative to: control
Structure (SMILES),remaining activity [%]
N#Cc1c(NC(=O)c2cccc3ccccc23)sc2c1CCCC2,96.4
CN([C@@H](Cc1ccc(OS(=O)(=O)c2cccc3cnccc23)cc1)C(=O)N1CCN(c2ccccc2)CC1)S(=O)(=O)c1cccc2cnccc12,96.7
CCN(CC)CCNC(=O)c1c(C)[nH]c(/C=C2\C(=O)Nc3ccc(Cl)cc32)c1C,105
CCN(CC)C(=O)c1ccc(Nc2nc(OCC3CCCCC3)c3[nH]cnc3n2)cc1,91.4
COc1cc2c(cc1OC)-c1[nH]nc(Nc3cccc(F)c3)c1C2,102
Cc1nc2cc3nc(-c4cccs4)cnc3cc2n1C,109
C[C@@H]1CCN(C(=O)CC#N)C[C@@H]1N(C)c1ncnc2[nH]ccc12,101
O=C1C(Cl)=C(N2C(=O)CCC2=O)C(=O)c2ccccc21,97.6
Ic1cccc(CSc2nnc(-c3ccncc3)o2)c1,98.6
Cn1nc2c3c(cccc31)C(=O)c1ccccc1-2,97
Cc1cn(-c2cc(NC(=O)c3ccc(C)c(Nc4nccc(-c5cccnc5)n4)c3)cc(C(F)(F)F)c2)cn1,97
N#C/C(=C\c1ccc(O)c(O)c1)C(=O)NCc1ccccc1,97.3
COc1cc2ncnc(Nc3ccc(O)c(Br)c3)c2cc1OC,98.8
CCOc1nc(NC(=O)Cc2cc(OC)ccc2OC)cc(N)c1C#N,95.3

# Set 2
# Target: Fragile X messenger ribonucleoprotein 1, C-terminal low-complexity region (Fmr1, Mus musculus, UniProt P35922)
# Method: RNA Bind-n-Seq
# Form: RNA
# Sample: in vitro
# Tested at: 200 nM
# Notes: whole 134-nt RNA, ends assumed
# Added: 150 mM LiCl
# Relative to: input library
# Reading: higher = stronger binding
# Each molecule: 7-deaza-guanosine replaces G
# Shared flanks, not repeated: GGGAGUUCUACAGUCCGACGAUC … UGGAAUUCUCGGGUGUCAAGG
Sequence,log2 enrichment
CCUCAAGUCCUGUGCUACACAUCGUAUGUACCGAAUCGGGGCGGGCGGCGGGAAAGUAUUAUGUUACGCCGUUCGGAUCUGCACUUCCAG,-0.907
UGGGAGGUGGAUUUUGUUUAUUUUUUUAGCUCAUUUCCAGGGGUGGGAAUUUUUUUUUAACAUGUGUCAUGAAUAAAGUUGUUUUUGAAA,-0.505
UGGCCCUGGUGGCAUGCGGGGAGGAAGAGGUGGCCUCAUGGAUCGUGGUGGUCCCGGUGGAAUGUUCAGAGGUGGCGGUGGUGGAGACAG,0.0149
ACCAUGCAGGUGGGCAUCUUUGGGAAGUGGGGCAAGGGGGGGAUAGGGAGGGGGGUAACACUUUGGGAACAGGUGGUCCCAGGUCAUUUC,1.53
GCAGGAAGUAAAAACAAUUGGAAAUGCUUCGGAUAGUGGCAGGGGUGGGGGUUGCUAAGGAAAGGGUGGGAUGGGAGUGGGUAAAGAGUU,1.54
CUCAAGUCCUGUGCUACACAUCGUAUGUACCGAAUCGGGUUGGGUUGGGUUGGAAAGUAUUAUGUUACGCCGUUCGGAUCUGCACUUCCA,-0.136
UGGGAGGUGGAUGUUGUUUAUUUUUUUAGCUCAUUUCCAGGGGUGGGAAUUUUUUUUUAAUAUGUGUCAUGAAUAAAGUUGUUUUUGAAA,0.164
AAGUCCUGUGCUACACAUCGUAUGUACCGAAUCGGGCCCCGGGGCCCCGGGCCCCGGAAAGUAUUAUGUUACGCCGUUCGGAUCUGCACU,-0.543

# Set 3
# Target: Histone acetyltransferase KAT6A, winged helix 2, GST fusion (KAT6A, Homo sapiens, UniProt Q92794, residues 85-181)
# Method: protein binding microarray
# Form: double-stranded DNA, one strand shown
# Sample: in vitro
# Tested at: not given
# Notes: 8-mer, flanks averaged, mean of 2 arrays, mostly near background
# Relative to: not given
# Reading: higher = stronger binding
# Residues (chain): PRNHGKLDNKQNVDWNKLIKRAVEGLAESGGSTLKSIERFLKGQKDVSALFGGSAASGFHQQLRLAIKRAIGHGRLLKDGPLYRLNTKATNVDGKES
Sequence,E-score
CCGTATAC,-0.128
CCGTCAAG,0.062
GGTGACCA,-0.0883
CTATGCAG,0.229
CTGGCGAC,0.133
CAGCTCCG,0.152
GGACCAAC,0.0407
ATATACAA,0.0673

# Other studies, line by line
Molecule,target,assay,test system,conditions,scale,quantity,result
"PhoQ, residues 284 288 289 292 302 303 AAQSYM","PhoP, residues 12 14 15 18 19 NHTVL (Escherichia coli, UniProt P23836)","Sort-seq, item: YFP reporter",E. coli,"PhoQ-PhoP variant library, added: 10 µM Mg2+","relative to: high Mg2+ state, higher = stronger signaling",fold induction,1.17

# Repeated from above (set 3):
Sequence,E-score
CCGTATAC,-0.128
CCGTCAAG,0.062
GGTGACCA,-0.0883
CTATGCAG,0.229
